Assay results from different studies.
“And” joins repeats or separate records; there may be more than shown.
HDAC1: Histone deacetylase 1 (HDAC1, Homo sapiens, UniProt Q13547)
UniProt Q13547, sequence (whole entry, looked up): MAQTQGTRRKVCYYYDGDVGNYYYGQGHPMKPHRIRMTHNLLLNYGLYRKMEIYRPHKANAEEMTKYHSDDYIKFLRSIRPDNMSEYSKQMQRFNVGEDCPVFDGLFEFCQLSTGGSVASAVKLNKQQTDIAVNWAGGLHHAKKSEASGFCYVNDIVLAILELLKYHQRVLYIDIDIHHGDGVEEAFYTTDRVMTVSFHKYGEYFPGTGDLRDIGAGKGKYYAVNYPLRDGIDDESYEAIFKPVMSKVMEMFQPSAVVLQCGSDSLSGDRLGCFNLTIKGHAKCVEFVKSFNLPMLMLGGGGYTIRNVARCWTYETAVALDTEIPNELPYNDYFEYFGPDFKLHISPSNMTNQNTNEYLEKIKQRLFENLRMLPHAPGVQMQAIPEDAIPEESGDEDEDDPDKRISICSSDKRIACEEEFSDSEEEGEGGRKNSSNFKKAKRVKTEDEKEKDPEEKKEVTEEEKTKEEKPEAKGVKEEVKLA
PPARG ligand-binding domain: Peroxisome proliferator-activated receptor gamma, ligand-binding domain (PPARG, Homo sapiens, UniProt P37231)
UniProt P37231, sequence (whole entry, looked up): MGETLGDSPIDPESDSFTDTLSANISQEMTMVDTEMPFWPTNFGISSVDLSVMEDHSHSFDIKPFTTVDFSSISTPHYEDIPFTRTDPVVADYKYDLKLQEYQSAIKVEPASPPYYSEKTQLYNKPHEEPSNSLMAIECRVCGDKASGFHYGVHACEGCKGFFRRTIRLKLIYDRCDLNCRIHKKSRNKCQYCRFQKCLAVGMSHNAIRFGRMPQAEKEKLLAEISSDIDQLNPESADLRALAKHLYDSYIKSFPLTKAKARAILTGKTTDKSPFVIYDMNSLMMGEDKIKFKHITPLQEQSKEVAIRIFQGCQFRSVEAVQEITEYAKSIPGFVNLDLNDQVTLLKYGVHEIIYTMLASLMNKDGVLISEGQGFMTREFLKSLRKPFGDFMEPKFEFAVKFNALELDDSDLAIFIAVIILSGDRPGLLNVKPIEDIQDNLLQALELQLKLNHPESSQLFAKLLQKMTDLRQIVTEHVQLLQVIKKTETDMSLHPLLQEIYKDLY
UniProt Q93009, sequence (whole entry, unmodified, looked up): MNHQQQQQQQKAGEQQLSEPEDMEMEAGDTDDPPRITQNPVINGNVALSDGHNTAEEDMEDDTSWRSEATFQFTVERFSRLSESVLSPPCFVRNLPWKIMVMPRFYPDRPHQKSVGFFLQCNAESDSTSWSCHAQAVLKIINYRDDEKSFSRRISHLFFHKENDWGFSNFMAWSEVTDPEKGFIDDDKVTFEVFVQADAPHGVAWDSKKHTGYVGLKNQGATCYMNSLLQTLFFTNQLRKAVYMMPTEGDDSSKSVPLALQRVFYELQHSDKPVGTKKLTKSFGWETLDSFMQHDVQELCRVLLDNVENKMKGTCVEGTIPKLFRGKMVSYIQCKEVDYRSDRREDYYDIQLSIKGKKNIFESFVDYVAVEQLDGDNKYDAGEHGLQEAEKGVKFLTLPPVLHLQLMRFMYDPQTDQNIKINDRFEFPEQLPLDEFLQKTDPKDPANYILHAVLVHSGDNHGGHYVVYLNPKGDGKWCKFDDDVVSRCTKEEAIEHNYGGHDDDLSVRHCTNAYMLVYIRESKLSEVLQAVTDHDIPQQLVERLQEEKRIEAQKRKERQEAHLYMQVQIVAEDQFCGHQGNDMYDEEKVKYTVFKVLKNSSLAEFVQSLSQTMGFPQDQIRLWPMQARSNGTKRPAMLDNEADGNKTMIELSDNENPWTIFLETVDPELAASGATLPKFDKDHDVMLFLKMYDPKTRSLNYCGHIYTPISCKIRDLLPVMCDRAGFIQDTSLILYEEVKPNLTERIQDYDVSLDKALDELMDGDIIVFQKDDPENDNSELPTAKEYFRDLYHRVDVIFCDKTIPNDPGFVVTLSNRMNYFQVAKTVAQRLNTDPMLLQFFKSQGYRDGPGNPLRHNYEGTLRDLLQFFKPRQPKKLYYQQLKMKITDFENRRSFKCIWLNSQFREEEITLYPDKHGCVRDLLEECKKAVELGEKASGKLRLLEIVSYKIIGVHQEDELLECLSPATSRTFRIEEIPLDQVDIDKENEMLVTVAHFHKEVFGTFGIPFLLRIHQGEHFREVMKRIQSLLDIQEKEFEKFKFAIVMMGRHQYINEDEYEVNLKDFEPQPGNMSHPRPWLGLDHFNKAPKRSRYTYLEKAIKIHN
UniProt Q9NQR1, sequence (whole entry, looked up): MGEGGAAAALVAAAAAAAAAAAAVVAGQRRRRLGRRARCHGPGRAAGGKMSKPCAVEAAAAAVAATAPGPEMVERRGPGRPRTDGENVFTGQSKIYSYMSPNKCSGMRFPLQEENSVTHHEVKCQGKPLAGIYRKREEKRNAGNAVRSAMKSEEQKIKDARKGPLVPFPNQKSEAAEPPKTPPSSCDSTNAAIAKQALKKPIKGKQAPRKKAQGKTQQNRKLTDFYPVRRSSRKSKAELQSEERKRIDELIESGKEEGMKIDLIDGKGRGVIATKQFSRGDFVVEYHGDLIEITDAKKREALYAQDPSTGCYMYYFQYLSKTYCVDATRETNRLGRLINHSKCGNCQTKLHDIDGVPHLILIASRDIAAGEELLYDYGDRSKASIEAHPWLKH
UniProt Q9NZV8, sequence (whole entry, looked up): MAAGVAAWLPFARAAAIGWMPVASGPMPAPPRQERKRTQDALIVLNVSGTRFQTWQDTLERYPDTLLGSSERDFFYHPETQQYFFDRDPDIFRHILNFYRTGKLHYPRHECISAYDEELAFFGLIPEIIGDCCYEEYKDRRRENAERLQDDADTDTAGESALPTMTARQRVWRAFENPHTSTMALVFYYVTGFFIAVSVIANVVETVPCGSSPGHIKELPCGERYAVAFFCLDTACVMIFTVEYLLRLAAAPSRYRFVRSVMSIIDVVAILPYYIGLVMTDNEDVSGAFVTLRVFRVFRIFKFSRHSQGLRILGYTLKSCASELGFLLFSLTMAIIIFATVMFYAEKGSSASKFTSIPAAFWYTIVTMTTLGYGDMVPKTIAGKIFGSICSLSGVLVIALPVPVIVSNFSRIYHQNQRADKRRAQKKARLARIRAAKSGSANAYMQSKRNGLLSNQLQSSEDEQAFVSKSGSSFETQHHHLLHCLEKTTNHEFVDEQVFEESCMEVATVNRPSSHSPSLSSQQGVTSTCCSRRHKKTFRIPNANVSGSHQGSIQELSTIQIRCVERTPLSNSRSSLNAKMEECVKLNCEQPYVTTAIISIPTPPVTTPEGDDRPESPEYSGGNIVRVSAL
UniProt Q6P5Z2, sequence (whole entry, looked up): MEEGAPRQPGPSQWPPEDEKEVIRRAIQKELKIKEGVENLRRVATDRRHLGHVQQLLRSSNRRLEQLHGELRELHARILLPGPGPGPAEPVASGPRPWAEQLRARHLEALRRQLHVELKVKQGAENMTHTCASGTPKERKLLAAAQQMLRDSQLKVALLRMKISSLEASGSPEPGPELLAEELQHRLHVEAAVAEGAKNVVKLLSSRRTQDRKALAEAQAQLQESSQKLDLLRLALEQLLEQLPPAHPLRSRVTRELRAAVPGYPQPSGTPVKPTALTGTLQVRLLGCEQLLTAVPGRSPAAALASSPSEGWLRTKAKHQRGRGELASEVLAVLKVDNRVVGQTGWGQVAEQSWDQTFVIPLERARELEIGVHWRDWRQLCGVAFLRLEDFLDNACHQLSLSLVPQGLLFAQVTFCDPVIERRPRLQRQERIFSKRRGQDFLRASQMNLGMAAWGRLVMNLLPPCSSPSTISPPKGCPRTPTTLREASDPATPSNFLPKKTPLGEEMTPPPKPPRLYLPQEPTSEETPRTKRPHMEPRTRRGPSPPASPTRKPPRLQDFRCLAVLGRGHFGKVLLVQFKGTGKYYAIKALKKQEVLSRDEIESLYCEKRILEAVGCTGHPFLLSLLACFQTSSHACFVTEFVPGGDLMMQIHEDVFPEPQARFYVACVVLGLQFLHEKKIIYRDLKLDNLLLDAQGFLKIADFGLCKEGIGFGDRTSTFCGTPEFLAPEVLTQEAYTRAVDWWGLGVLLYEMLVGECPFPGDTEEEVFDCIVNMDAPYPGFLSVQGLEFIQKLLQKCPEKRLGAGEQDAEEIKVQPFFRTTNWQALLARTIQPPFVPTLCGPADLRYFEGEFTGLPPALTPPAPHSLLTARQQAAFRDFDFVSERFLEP
UniProt P41143, sequence (whole entry, looked up): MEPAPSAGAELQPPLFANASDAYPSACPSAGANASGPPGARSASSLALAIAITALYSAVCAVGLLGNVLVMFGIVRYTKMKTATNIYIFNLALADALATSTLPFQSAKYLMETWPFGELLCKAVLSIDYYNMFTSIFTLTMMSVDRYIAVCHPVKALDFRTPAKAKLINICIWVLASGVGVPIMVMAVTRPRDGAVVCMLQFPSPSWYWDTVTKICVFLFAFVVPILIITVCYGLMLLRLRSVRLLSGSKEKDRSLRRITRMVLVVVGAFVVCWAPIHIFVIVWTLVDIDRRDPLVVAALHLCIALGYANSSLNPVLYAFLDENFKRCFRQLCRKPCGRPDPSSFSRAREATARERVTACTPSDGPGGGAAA
UniProt P28336, sequence (whole entry, looked up): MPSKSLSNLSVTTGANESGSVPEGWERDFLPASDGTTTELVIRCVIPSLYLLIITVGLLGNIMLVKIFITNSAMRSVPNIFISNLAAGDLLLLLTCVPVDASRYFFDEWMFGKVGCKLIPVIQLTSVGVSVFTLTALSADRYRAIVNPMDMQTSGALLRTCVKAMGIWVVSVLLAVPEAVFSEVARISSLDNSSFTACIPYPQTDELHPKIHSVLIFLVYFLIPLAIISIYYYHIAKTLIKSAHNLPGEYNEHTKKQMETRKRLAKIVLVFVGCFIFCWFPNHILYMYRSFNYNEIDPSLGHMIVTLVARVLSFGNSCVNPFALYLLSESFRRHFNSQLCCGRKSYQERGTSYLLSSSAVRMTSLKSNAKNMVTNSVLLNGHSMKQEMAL

Compound | target or system | test | system | setting | how to read | endpoint | result
O=C1c2sc(-c3ccc(N4CCC(F)C4)nc3F)nc2CCN1c1cccnc1 (stereo not drawn) | Peroxisome proliferator-activated receptor gamma (PPARG, Homo sapiens, UniProt P37231) | ligand displacement, radioligand |  | 1 µM |  | inhibition | -5%
Cc1c(COc2cc(OCc3cccc(C#N)c3)c(CN3CCCC[C@H]3C(=O)O)cc2Cl)cccc1-c1cccc(OCc2ccc(/C=C/C(=O)NO)cc2)c1 | HDAC1 | enzyme activity, inhibitor |  | 1 µM |  | inhibition | 29.9%
CCCCCCN(O)C(=O)CCCCC[C@@H]1NC(=O)[C@H]([C@@H](C)CC)NC(=O)[C@H](Cc2ccccc2C(F)(F)F)NC(=O)CCSCc2cccc(n2)CSCCCNC1=O | HDAC1 |  |  | 30 µM |  | inhibition | 50%
C/C=C/C(=O)Nc1ccc2nc(NCCCCCN(C)C)nc(NCCCCCCN(C)C)c2c1 | N-lysine methyltransferase KMT5A (KMT5A, Homo sapiens, UniProt Q9NQR1) | enzyme activity, inhibitor, radiometric |  | 50 µM |  | inhibition | 5%
C[C@H](NC(=O)[C@H](CC(=O)NCC(C)(C)C)NC(=O)C(=O)c1c[nH]c2ccccc12)C(=O)NCc1ccc(F)cc1F | Procathepsin L (CTSL, Homo sapiens, UniProt P07711) | enzyme activity, inhibitor |  | 100 µM |  | inhibition | -6%
CC(=O)C12NC(C)(C)CC1(C)C(=O)C1=C2c2c(c3c4n2C(C)(C)CC2=C4C4(CC(C)(C)NC(C)(C4)C2=O)CC3(C)C)C(=O)C(C)(C)N1 (single isomer, unassigned; (-)) | A-type voltage-gated potassium channel KCND2 (KCND2, Homo sapiens, UniProt Q9NZV8) | ion current, inhibitor, patch clamp | HEK-293T | 10 µM |  | inhibition | 19.2%
Cc1cc(C)nc(SCC(=O)Nc2ncc(Cc3cccc4ccccc34)s2)n1 | NAD-dependent protein deacylase sirtuin-6 (SIRT6, Homo sapiens, UniProt Q8N6T7) | enzyme activity, inhibitor |  | 10 µM, added: myristoylated substrate |  | inhibition | < 5%
C=CC(=O)Nc1cccc(Cn2ncc3cnc(Nc4cnn(CCOC)c4)nc32)c1 | EPHA8 human | binding, KINOMEscan |  | 100 nM | lower = stronger binding | percent of control | 100%
Cc1c(Cc2cccc(OC(C)(C)C(=O)O)c2)c2ccc(C(=O)N[C@@H](C)c3cccc(Cl)c3)cc2n1C | PPARG ligand-binding domain | reporter gene, luciferase reporter | HEK293T, Gal4-PPARγ LBD |  |  | IC50 | 537 µM
COc1cc(-c2cn(C)c(=O)c3cnccc23)cc(OC)c1CN(C)C | Peregrin (BRPF1, Homo sapiens, UniProt P55201) |  |  | 1 µM |  | inhibition | 0.7%
O=C(Nc1ccc(C(F)F)cc1)[C@H](CC1CCCCC1)Nc1nn2c(=O)ccnc2s1 | Tyrosine-protein phosphatase non-receptor type 22 (PTPN22, Homo sapiens, UniProt Q9Y2R2) | enzyme activity, inhibitor |  | 10 µM |  | inhibition | 22%
NC(=O)C[C@H]1CCc2sc3ncnc(O[C@H]4CC[C@H](N5CCOCC5)CC4)c3c21 | Serine/threonine-protein kinase N3 (PKN3, Homo sapiens, UniProt Q6P5Z2) | enzyme activity, inhibitor |  | 10 µM |  | inhibition | 17%
Nc1ncc(-c2cc(-c3cnn(CC(F)(F)F)c3)ncc2F)nc1C(=O)NC1CNCC(F)C1 (stereo not drawn) | EPHB6 | KINOMEscan |  | 1 µM | baseline: DMSO control | remaining binding | 100%
CO[C@@H](C)c1c(NC(=O)Nc2cnc(-n3nccn3)c(C(F)(F)F)c2)cnc2sc(C)nc12 | Melanocortin receptor 4 (MC4R, Homo sapiens, UniProt P32245) | ligand displacement, radioligand |  | 10 µM |  | inhibition | 2.7%
Cc1nn(-c2cccc(N)c2)c(=O)c2cnc(Nc3ccc(N4CCNCC4)cc3)nc12 | Rho-associated protein kinase 2 (ROCK2, Homo sapiens, UniProt O75116) | enzyme activity, inhibitor |  |  |  | IC50 | > 10 µM
Cc1c(COc2cc(OCc3cccc(C#N)c3)c(CNC(C)(CO)CO)cc2Cl)cccc1-c1cccc(OCCCCCC(=O)NO)c1 | HDAC1 | enzyme activity, inhibitor |  | 1 µM |  | inhibition | 70.5%
Cc1c(Cc2ccc(Cl)c(OCC(=O)O)c2)c2ccc(C(=O)NCc3ccc(C(C)(C)C)cc3)cc2n1CC(C)C | PPARG ligand-binding domain | reporter gene, luciferase reporter | HEK293T, Gal4-PPARγ LBD |  |  | IC50 | 24.4 µM
C=C(NC(=O)c1csc(-c2nc3c(cc2O)-c2nc(cs2)C(=O)NC(C(C)O)C(=O)NC(=C(C)OC)c2nc(cs2)C(=O)NC2c4nc(cs4)C(=O)NC(COC(=O)c4c5c6c(cccc6n4O)COC(=O)C(OC4CC(C)(O)C(N(C)C)C(C)O4)C2OC5)c2nc-3cs2)n1)C(N)=O (stereo not drawn) | Streptococcus pneumoniae |  | -25, immunocompromised mice, lung infection, lung | 32 mg/kg/day once daily, 24 h post-dose |  | bacterial load | 3.96 log CFU/g
C[Si]1(C[C@H](CN)CC(=O)O)CCCC1 | Neuromedin-B receptor (NMBR, Homo sapiens, UniProt P28336) | cell-free assay, inhibitor |  | 70 µM |  | inhibition | 9%
Cc1nc2c(F)cc(-c3nc(Nc4ccc(CNC(=O)CCCCCCC(=O)NO)cc4)ncc3F)cc2n1C(C)C | CaMKIß(h) human kinase | enzyme activity |  | 1 µM |  | inhibition | 42%
C[Si](C)(C)C[C@H](CN)CC(=O)O | Delta-type opioid receptor (OPRD1, Homo sapiens, UniProt P41143) | ligand displacement, radioligand |  | 250 µM |  | inhibition | -14%
COc1cc(-n2cc3cc(F)cc(C(N)=O)c3n2)cc(Cl)c1C1CC(O)(CCO)Cc2ccccc21 (stereo not drawn) | Protein mono-ADP-ribosyltransferase PARP14 (PARP14, Homo sapiens, UniProt Q460N5) | enzyme activity, inhibitor |  | 10 µM |  | inhibition | 1.23%
Cc1cc(Cl)cc(-c2ccnc3cc(CN4C(=O)C5C(C4=O)C5(C)C)sc23)c1C[C@@H]1CNCCO1 (stereo partly drawn) | Ubiquitin carboxyl-terminal hydrolase 7 (USP7, Homo sapiens, UniProt Q93009, V517F) | enzyme activity, inhibitor |  | 50 µM |  | inhibition | 98.7% and 98.4%
COC1CN([C@H]2CC[C@H]([C@@]3(C)Oc4c(Cl)cc(C(=O)NCc5c(SC)cc(C)[nH]c5=O)c(C)c4O3)CC2)C1 |  | RNA-seq, refers to: RFX2 | human, whole blood | dose not given, 24 h | baseline: pretreatment baseline | log2 fold change | 1.2
